Published values of several laboratories.
Parts stem from different laboratories: compare values within a part only.
UniProt Q9BXA7, sequence (whole entry, looked up): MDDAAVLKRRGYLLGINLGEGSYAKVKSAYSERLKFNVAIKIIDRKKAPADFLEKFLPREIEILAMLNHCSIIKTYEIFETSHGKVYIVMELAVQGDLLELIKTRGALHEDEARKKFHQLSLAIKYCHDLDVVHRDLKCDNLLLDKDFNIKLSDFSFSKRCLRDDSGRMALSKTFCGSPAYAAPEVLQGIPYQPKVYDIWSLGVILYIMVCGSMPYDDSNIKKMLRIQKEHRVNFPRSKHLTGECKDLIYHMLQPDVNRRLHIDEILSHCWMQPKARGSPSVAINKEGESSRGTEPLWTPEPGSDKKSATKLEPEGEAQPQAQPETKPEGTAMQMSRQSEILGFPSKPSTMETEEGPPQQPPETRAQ
UniProt Q6P3R8, sequence (whole entry, looked up): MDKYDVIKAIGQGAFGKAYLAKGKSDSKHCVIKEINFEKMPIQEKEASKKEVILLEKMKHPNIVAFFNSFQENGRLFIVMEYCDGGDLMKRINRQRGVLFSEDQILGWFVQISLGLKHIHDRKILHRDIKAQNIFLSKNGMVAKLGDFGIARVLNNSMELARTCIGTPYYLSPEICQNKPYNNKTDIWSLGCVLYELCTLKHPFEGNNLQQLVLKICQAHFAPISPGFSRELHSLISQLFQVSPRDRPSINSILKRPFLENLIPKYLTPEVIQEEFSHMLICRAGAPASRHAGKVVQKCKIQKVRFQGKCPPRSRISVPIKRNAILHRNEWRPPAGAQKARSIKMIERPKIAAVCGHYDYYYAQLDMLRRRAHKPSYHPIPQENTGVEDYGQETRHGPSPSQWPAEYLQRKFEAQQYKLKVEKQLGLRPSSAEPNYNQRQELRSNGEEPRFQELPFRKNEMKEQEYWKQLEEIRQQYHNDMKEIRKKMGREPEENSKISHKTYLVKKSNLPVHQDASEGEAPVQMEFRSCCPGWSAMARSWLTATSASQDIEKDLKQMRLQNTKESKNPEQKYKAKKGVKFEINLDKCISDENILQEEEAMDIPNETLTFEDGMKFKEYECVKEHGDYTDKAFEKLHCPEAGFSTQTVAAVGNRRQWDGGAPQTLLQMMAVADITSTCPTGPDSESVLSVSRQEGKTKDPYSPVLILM
UniProt P42685, sequence (whole entry, looked up): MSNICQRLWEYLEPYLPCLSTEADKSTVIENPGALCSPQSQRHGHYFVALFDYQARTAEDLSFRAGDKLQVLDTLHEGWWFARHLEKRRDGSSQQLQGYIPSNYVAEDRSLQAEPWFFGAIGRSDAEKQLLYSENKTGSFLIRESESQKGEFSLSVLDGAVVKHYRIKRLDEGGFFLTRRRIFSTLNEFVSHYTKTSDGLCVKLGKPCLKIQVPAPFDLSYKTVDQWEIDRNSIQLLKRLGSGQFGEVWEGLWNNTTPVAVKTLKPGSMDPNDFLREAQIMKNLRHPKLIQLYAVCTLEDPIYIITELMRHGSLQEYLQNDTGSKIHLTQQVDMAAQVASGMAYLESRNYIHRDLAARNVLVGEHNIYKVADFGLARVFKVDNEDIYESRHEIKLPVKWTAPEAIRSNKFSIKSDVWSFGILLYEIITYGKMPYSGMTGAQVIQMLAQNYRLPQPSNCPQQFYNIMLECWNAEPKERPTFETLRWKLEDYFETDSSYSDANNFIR
UniProt P30291, sequence (whole entry, looked up): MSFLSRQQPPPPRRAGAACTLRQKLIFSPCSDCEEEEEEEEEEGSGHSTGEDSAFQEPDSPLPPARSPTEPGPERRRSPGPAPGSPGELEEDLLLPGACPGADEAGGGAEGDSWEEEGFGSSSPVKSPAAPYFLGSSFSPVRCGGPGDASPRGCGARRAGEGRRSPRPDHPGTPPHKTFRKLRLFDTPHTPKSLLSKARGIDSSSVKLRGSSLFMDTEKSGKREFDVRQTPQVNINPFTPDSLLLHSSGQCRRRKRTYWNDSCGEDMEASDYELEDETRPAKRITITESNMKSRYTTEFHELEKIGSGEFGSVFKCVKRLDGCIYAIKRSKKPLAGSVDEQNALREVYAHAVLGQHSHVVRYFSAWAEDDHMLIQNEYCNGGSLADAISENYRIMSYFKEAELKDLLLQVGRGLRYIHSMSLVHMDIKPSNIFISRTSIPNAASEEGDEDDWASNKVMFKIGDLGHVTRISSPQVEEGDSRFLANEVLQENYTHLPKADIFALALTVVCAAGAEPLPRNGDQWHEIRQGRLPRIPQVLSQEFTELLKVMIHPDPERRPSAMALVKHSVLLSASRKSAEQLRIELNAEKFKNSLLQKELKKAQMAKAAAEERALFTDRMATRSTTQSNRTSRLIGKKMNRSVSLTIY
UniProt Q96NX5, sequence (whole entry, looked up): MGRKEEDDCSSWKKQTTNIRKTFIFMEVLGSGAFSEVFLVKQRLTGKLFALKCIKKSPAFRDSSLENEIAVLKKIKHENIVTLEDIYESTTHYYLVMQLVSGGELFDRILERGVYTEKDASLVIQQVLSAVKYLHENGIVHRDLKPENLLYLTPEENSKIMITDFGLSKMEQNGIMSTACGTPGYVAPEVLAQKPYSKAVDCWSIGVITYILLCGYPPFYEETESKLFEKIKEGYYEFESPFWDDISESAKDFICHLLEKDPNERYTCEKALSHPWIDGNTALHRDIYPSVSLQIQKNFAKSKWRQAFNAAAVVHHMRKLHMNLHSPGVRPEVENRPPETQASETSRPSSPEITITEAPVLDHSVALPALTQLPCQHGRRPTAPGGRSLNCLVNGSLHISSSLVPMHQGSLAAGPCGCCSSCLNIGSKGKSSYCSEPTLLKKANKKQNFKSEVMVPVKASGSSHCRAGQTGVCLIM
UniProt Q56UN5, sequence (whole entry, looked up): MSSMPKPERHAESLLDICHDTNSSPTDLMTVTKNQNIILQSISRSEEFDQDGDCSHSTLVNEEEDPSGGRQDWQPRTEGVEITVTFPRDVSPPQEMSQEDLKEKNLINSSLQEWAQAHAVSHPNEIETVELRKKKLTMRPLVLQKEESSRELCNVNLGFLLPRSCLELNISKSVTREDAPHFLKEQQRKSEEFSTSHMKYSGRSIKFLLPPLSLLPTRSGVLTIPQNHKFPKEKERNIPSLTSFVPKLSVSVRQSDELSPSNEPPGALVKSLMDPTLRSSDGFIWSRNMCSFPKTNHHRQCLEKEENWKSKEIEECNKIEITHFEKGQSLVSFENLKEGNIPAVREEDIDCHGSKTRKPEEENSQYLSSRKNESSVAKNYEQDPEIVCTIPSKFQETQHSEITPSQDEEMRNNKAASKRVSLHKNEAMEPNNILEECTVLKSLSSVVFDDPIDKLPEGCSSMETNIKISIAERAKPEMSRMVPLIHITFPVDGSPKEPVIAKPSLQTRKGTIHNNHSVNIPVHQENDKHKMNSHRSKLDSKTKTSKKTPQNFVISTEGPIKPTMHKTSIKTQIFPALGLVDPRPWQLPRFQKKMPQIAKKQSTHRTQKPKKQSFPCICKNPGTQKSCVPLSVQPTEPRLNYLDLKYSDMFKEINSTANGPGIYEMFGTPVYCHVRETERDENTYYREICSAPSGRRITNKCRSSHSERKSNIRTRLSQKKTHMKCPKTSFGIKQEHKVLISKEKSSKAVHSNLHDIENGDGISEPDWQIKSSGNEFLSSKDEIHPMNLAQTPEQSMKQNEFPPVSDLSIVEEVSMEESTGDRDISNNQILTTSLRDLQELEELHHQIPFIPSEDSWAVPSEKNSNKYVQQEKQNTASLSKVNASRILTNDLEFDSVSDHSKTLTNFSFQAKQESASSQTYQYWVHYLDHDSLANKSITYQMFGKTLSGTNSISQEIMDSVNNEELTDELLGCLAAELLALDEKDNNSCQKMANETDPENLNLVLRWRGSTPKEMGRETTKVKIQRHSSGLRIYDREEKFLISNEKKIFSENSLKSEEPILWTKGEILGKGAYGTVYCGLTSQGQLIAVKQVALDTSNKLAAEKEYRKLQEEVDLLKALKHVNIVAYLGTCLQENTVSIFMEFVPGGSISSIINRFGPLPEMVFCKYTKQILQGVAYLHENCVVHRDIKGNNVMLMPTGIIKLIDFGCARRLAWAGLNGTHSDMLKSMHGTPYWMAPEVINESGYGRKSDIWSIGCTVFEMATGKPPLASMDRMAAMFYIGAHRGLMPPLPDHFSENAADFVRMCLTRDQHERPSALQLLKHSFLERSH

Sample 1 — effect on: cell-free assay; method: competition with immobilised ligand; tested at: 0.1 µM
SMILES: Nc1c(C(=O)NCc2ccc(C(=O)NCCCC3CCCCC3)cc2)cnn1-c1ccccc1
target | remaining binding
CAMK1G (Homo sapiens, UniProt Q96NX5) | 100%
CILK1 (Homo sapiens, UniProt Q9UPZ9) | 100%
Myosin-IIIb (MYO3B, Homo sapiens, UniProt Q8WXR4) | 100%
WEE1 (Homo sapiens, UniProt P30291) | 100%
STK32A (Homo sapiens, UniProt Q8WU08) | 96%
CASK (Homo sapiens, UniProt O14936) | 78%

Sample 2 — host: human; medium: plasma; route: oral
SMILES: COc1ccc(-c2c(Nc3ccccn3)[nH]c3c(C4=CCCCC4)c(-c4ccccc4)nn3c2=O)cc1
assay | conditions | Tlast [h]
LC-MS/MS | 200 mg once daily | 24
 | 200 mg twice daily | 24
LC-MS/MS | 100 mg once daily | 24

Sample 3 — effect on: enzyme activity; action: inhibitor; tested at: 0.5 µM; relative to: control
Target: Serine/threonine-protein kinase N1 (PKN1, Homo sapiens, UniProt Q16512)
UniProt Q16512, sequence (whole entry, looked up): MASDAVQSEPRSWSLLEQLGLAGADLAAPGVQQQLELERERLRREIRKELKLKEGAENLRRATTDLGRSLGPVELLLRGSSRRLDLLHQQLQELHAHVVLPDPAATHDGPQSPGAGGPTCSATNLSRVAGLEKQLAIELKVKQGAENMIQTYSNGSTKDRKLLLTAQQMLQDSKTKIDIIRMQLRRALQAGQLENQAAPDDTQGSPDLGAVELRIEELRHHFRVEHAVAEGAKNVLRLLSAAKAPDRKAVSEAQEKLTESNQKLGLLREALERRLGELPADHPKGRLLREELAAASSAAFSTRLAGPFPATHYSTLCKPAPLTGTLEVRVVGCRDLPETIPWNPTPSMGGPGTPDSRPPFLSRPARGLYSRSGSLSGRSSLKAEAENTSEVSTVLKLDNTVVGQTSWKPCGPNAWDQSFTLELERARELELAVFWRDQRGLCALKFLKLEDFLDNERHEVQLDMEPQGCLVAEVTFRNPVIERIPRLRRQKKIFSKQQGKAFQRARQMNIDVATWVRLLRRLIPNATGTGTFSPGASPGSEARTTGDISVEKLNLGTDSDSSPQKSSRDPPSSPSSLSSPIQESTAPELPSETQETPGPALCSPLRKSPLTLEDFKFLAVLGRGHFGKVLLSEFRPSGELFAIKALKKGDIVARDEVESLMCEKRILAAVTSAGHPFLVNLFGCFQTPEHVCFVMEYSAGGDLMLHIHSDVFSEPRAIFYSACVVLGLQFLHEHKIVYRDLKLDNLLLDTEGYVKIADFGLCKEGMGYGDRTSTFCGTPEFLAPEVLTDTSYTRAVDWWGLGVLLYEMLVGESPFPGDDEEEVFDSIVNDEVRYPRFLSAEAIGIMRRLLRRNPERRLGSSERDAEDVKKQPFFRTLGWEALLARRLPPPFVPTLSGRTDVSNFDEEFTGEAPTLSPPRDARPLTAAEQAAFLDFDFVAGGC
Structure (SMILES) | remaining activity [%]
O=C(O)c1ccc2c3c1cccc3c(=O)n1c3ccccc3nc21 | 99.5
COc1cc2nccc(Oc3ccc(NC(=S)NC(=O)c4ccccc4C)cc3)c2cc1OC | 99.2
COc1ccc(OC)c2c(=S)c3ccccc3[nH]c12 | 109
Cc1ccc(Nc2nccc(N(C)c3ccc4c(C)n(C)nc4c3)n2)cc1S(N)(=O)=O | 102
O=C(Nc1cccc(Nc2cc(Nc3cccc(C(F)(F)F)c3)ncn2)c1)C1CC1 | 98.9
Cc1cccc(-c2[nH]c(C(C)(C)C)nc2-c2ccc3c(c2)OCO3)n1 | 108
O=C1NC(=O)C(c2cn(CCCn3ccnc3)c3ccccc23)=C1Nc1ccccc1 | 22.7
Cn1sc(=O)n(Cc2ccccc2)c1=O | 98.5
COc1cc2ncnc(Nc3ccc(Oc4ccccc4)cc3)c2cc1OC | 97.3
O=c1c2ccccc2[nH]c(=S)n1CCN1CCC(=C(c2ccc(F)cc2)c2ccc(F)cc2)CC1 | 103
OCC(O)CCON=C1C(c2c(O)[nH]c3ccccc23)=Nc2ccccc21 (stereo not shown) | 49.9
O=C1NC(=O)C(c2cn(CCCO)c3ncccc23)=C1c1cnccn1 | 97.8
Nc1ccc2ncnc(NCCc3ccc(Oc4ccccc4)cc3)c2c1 | 105

Sample 4 — effect on: enzyme activity; action: inhibitor; tested at: 1 µM
SMILES: CC#CC(=O)N1CCC[C@H]1c1nc(-c2ccc(C(=O)Nc3ccccn3)cc2)c2c(N)nccn12
target | inhibition [%]
PLK2 (Homo sapiens, UniProt Q9NYY3) | 0
MAP3K19 (Homo sapiens, UniProt Q56UN5) | 10
TSSK1B (Homo sapiens, UniProt Q9BXA7) | 0
MYLK3 (Homo sapiens, UniProt Q32MK0) | 0
FRK (Homo sapiens, UniProt P42685) | 43
NEK5 (Homo sapiens, UniProt Q6P3R8) | 17

A few entries again (sample 4):
target | inhibition [%]
MAP3K19 (Homo sapiens, UniProt Q56UN5) | 10
TSSK1B (Homo sapiens, UniProt Q9BXA7) | 0
MYLK3 (Homo sapiens, UniProt Q32MK0) | 0
FRK (Homo sapiens, UniProt P42685) | 43
